Measured values of several laboratories.
Each line is one published result; not all experiments were run side by side. Several values in a cell are separate wells, animals, samples, runs or records. Numbers after ± are the reported error.
UCHL1: Ubiquitin carboxyl-terminal hydrolase isozyme L1 (UCHL1, Homo sapiens, UniProt P09936)
Chain of UniProt P09936 (whole entry, looked up): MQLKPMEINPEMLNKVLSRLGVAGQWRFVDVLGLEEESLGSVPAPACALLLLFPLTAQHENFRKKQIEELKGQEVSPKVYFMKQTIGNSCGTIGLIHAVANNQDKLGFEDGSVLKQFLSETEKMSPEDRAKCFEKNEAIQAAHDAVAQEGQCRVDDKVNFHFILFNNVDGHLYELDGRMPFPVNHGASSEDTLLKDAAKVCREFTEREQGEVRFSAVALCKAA

CC(C)C(=O)Nc1ccc(C(=O)CCl)cc1
labelling (UCHL1; covalent, intact protein LC-MS; 12.5 µM): 37.9%

Nc1ccn([C@H]2CC[C@@H](CO)O2)c(=O)n1
mitochondrial DNA content (HepG2; qPCR; 0.2 µM, 10 days, 3; relative to: untreated): 57 ± 10.4%

COc1ccc(NC(=O)c2c(Nc3ccccc3)sc(C#N)c2NC(=O)CNc2ccc(Cl)cc2)cc1
cells in G2/M (HepG2; flow cytometry; IC50, 24 h): 21.2 ± 3.12%

CC(=O)c1nn(-c2ccc(Cl)cc2)/c(=N/N=C(\C)c2ccc(NC(=O)c3ccc(Cl)cc3)cc2)s1
viability (HepG2; 0.625 µM): 98.1%

O=C(O)Cc1ccccc1Nc1c(Cl)cccc1Cl
point of departure (HepG2; high content imaging, measured: nuclear size; 24 h, distribution mode 2): 692 µM and 871 µM

CC(=O)c1nn(-c2ccc(C)cc2)/c(=N/N=C(\C)c2ccc(NC(=O)c3ccccc3)cc2)s1
cytotoxicity (HepG2; MTT; 0.625 µM): 94.6%

COc1ccc(NC(=O)c2c(Nc3ccccc3)sc(C(=O)NN=Cc3ccc(OC)c(O)c3)c2NC(C)=O)cc1
necrotic cells (HepG2; annexin V-FITC/PI; concentration not given): 2.06%

CCOC(=O)/C=C\C(=O)OCC
point of departure (HepG2; measured: glutathione; 24 h, representative mode): 10.5 µM

CCOC(=O)C(C#N)=Cc1cccc([N+](=O)[O-])c1
labelling (UCHL1; covalent, intact protein LC-MS; 12.5 µM): 15.6%

CCOC(=O)c1nn(-c2cccc(Cl)c2)/c(=N/N=C(\C)c2ccc(NC(=O)c3ccccc3)cc2)s1
cytotoxicity (HepG2; MTT; 1.25 µM): 97.3%

COc1ccc(-n2nc(C(C)=O)s/c2=N\N=C(/C)c2ccc(NC(=O)c3ccccc3)cc2)cc1
viability (HepG2; 0.625 µM): 50.2%

CC(C)(C)c1cc(O)ccc1O
point of departure (HepG2; extracellular flux, measured: oxygen consumption rate; 24 h, distribution mode 2): 162 µM

Some of these lines once more:
CCOC(=O)C(C#N)=Cc1cccc([N+](=O)[O-])c1
labelling (UCHL1; covalent, intact protein LC-MS; 12.5 µM): 15.6%
